# Measurements gathered from unrelated publications.
# Each line is one published result; not all experiments were run side by side. Several values in a cell are separate wells, animals, samples, runs or records. ± gives the spread as reported.
Compound,cell line,test,system,setting,scale,endpoint,result
C[C@@H]1O[C@@H](OC[C@H]2O[C@@H](Oc3c(-c4ccc(O)c(O)c4)oc4cc(O)cc(O)c4c3=O)[C@H](O)[C@@H](O)[C@@H]2O)[C@H](O)[C@H](O)[C@H]1O,Caco-2 monolayer,transwell permeability,,"100 µg/mL, apical to basolateral, HBSS, DMSO 1%, together with: SDS 10 mg/mL",baseline: SDS alone,Papp increase,28.3%
COc1ccc(-c2nc(NS(=O)(=O)c3ccc(C)cc3)nc(N)c2-c2nc3ccccc3s2)cc1,FRhK-4,cytotoxicity,,72 h,,maximum non-toxic concentration,90 µg/mL
CCOC(=O)c1cc(C#N)c(=O)n(NS(=O)(=O)c2ccc(C)cc2)c1N,FRhK-4,,,72 h,,maximum non-toxic concentration,90 µg/mL
CN[C@H](CC(C)C)C(=O)N[C@H]1C(=O)N[C@@H](CC(N)=O)C(=O)N[C@H]2C(=O)N[C@H]3C(=O)N[C@H](C(=O)N[C@H](C(=O)O)c4cc(O)cc(O)c4-c4cc3ccc4O)[C@H](O)c3ccc(c(Cl)c3)Oc3cc2cc(c3O[C@@H]2O[C@H](CO)[C@@H](O)[C@H](O)[C@H]2O[C@H]2C[C@](C)(N)[C@H](O)[C@H](C)O2)Oc2ccc(cc2Cl)[C@H]1O,ciPTEC overexpressing OAT-1,,,"24 h, 37 °C, serum-free medium",,TC50,> 1000 µM
CC(=O)CNc1nc(NS(=O)(=O)c2ccccc2)ncc1-c1nc2ccccc2s1,FRhK-4,cytotoxicity,,72 h,,maximum non-toxic concentration,80 µg/mL
CC(C)c1cnn2c(NCc3ccccc3-n3cccn3)nc(OC3CCCNC3)nc12 (stereo not shown),primary human fibroblasts,,,uninfected,,CC50,> 10 µM
COc1ccc(CNC(=O)c2ccc(CNCc3cnc4nc(N)nc(N)c4n3)cc2)cc1,THP-1-derived macrophages,MTT,,,,CC50,50 to 100 µM
Cc1ccc(S(=O)(=O)Nc2nc(N)c(-c3nc4ccccc4s3)c(-c3ccccc3)n2)cc1,FRhK-4,cytotoxicity,,72 h,,maximum non-toxic concentration,90 µg/mL
Nc1nc(N)c2nc(CNc3ccc(C(=O)N4CCC(C(=O)O)CC4)cc3)cnc2n1,THP-1-derived macrophages,MTT,,,,CC50,> 100 µM
Nc1nc(NS(=O)(=O)c2ccccc2)nc(-c2ccc(F)cc2)c1-c1nc2ccccc2s1,FRhK-4,cytotoxicity,,72 h,,maximum non-toxic concentration,100 µg/mL
CCN(Cc1cnc2nc(N)nc(N)c2n1)c1ccc(C(=O)N2CCC(C(=O)OC)CC2)cc1,THP-1-derived macrophages,MTT,,,,CC50,> 100 µM
Nc1n[nH]c2c(-c3nc4ccccc4s3)c(N)n(NS(=O)(=O)c3ccccc3)c(=O)c12,FRhK-4,,,72 h,,maximum non-toxic concentration,90 µg/mL
Cc1ccc(-c2nc(NS(=O)(=O)c3ccccc3)nc(N)c2-c2nc3ccccc3s2)cc1,FRhK-4,cytotoxicity,,72 h,,maximum non-toxic concentration,90 µg/mL
Cn1nc2c(=O)n(C3CC3)ccc2c1[C@](O)(c1cnc(C(F)(F)F)c(Cl)c1)C(F)(F)F,Caco-2 monolayer,,,,,Papp (B-A),70.2 ×10⁻⁶ cm/s
COc1cc(/C=C/C(=O)/C=C/c2ccc(O)c(OC)c2)ccc1O,WRL68,MTT,,"3.2 µg/mL, 48 h, 10% fetal bovine serum",,viability,10.5% and 10.7%
COc1ccc(-c2nc(NS(=O)(=O)c3ccccc3)nc(N)c2-c2nc3ccccc3s2)cc1,FRhK-4,cytotoxicity,,72 h,,maximum non-toxic concentration,100 µg/mL
Cc1cc2ccccc2n1CCNC(=O)c1ccc(N2CCC(O)CC2)cc1,C6 glioma,cell viability,,,,cytotoxic concentration,> 100 µM
Nc1nc(N)c2nc(C(=O)NCc3ccccc3)cnc2n1,THP-1-derived macrophages,MTT,,,,CC50,12.5 to 25 µM
CCSc1c(-c2nc3ccccc3s2)c(N)n(NS(=O)(=O)c2ccccc2)c(=O)c1C#N,FRhK-4,,,72 h,,maximum non-toxic concentration,120 µg/mL
CCOC(=O)C1CCN(C(=O)c2ccc(N(CC)Cc3cnc4nc(N)nc(N)c4n3)cc2)CC1,THP-1-derived macrophages,MTT,,,,CC50,50 to 100 µM
Cc1ccc(S(=O)(=O)Nn2c(N)c(C#N)cc(C#N)c2=O)cc1,FRhK-4,,,72 h,,maximum non-toxic concentration,100 µg/mL
CC1(C)OB(c2ccc(CNS(=O)(=O)c3cc(C(=O)Nc4cc(F)c(F)c(F)c4)ccc3F)cc2)OC1(C)C,HepAD38 cells,CCK-8,,6 days,,CC50,5.71 ± 1.36 µM
O=c1cc(-c2ccc(O)cc2)oc2c([C@@H]3O[C@H](CO)[C@@H](O)[C@H](O)[C@H]3O)c(O)cc(O)c12,Caco-2 monolayer,transwell permeability,,"100 µg/mL, apical to basolateral, HBSS, DMSO 1%, together with: digoxin 5 ng/mL",baseline: digoxin alone,Papp increase,15.3%
COc1cc2ncnc(Nc3ccc(Oc4ccccc4)c(C)c3C)c2cc1OC.Cl,SW-620 (KRAS G12V),resazurin,,"concentration not given, 72 h, together with: trametinib 0 nM",,viability fraction,0.838 and 0.846 and 0.844 and 0.808 and 1.02 and 0.921 and 0.751 and 0.898
CSc1nc(NS(=O)(=O)c2ccc(C)cc2)nc(N)c1-c1nc2ccccc2s1,FRhK-4,cytotoxicity,,72 h,,maximum non-toxic concentration,100 µg/mL
COc1ccc(Oc2ccc(CNCc3cnc4nc(N)nc(N)c4n3)cc2)cc1,THP-1-derived macrophages,MTT,,,,CC50,12.5 to 25 µM
C[C@@H](CN1CC(=O)NC(=O)C1)N1CC(=O)NC(=O)C1,"LUHMES MT1G-HiBiT neurons, differentiated",,,concentration not given,,cytotoxicity,toxic
CC(=O)N[C@H]1[C@H]([C@H](O)[C@H](O)CO)OC(C(=O)O)=C[C@@H]1N=C(N)N,Caco-2 monolayer,,HBSS without Ca2+,"180 min, apical to basolateral",,Papp,2.42 ± 0.161 ×10⁻⁶ cm/s
NC(=O)C1CCCN1C(=O)Cc1ccc(N(CCCO)Cc2cnc3nc(N)nc(N)c3n2)cc1 (stereo not shown),THP-1-derived macrophages,MTT,,,,CC50,> 100 µM
CCSC(SCC)=C(C#N)c1nc2ccccc2s1,FRhK-4,,,72 h,,maximum non-toxic concentration,110 µg/mL
NC1=NN(c2ccc(Oc3ccccc3)c(S(=O)(=O)O)c2)C(=O)C1,human neural progenitor cells,,,"20 µM, 72 h",,viability,< 25%
Cc1ccc(S(=O)(=O)Nc2nc(N)c(-c3nc4ccccc4s3)c(-c3ccc(Cl)cc3)n2)cc1,FRhK-4,cytotoxicity,,72 h,,maximum non-toxic concentration,100 µg/mL
CCCN1CCCC[C@H]1C(=O)Nc1c(C)cccc1C,PC-12,MTS,,"1 to 3 mM, 24 h",baseline: prilocaine,viability,no effect
COC(=O)C1CCN(C(=O)c2cccc(NCc3cnc4nc(N)nc(N)c4n3)c2)CC1,THP-1-derived macrophages,MTT,,,,CC50,> 100 µM
CCCC(CCC)NC(=O)c1ccc2c(c1)OCO2,CHO-WBL,,,"0.56 mg/mL, 3 h, with rat liver S9",baseline: vehicle control,relative cell growth,37%
CCc1c(-c2ccccc2)c(-c2ccccc2)nn1-c1ccccc1-c1cccc(OCC(=O)O)c1,mouse bone marrow macrophages,CCK-8,,"2 µM, 4000 cells",baseline: untreated,viability,96.4% and 101% and 92.1% and 88.8% and 86.4% and 84.4%
Cc1ccc2c(c1)C(=O)[C@]1(O)CCN(c3ccc4nc(C)ccc4c3)C1=N2.Cl,human and murine GBM lines,CellTiter-Glo,,"10 µM, 96 h",,cytotoxicity,> 90%
O=C(Nc1ccc(F)c(Br)c1)c1ccc2c(c1)C(=O)NC2=O,SH-SY5Y,MTT,,"1 to 20 µM, 24 h",,viability,not toxic
N#Cc1cc(C#N)c(=O)n(NS(=O)(=O)c2ccccc2)c1N,FRhK-4,,,72 h,,maximum non-toxic concentration,100 µg/mL
Cc1cc(C(=O)NC(C)(C)COc2cccc3c2C(N)=NS(=O)(=O)N3)cc(C)n1,human peripheral blood lymphocytes,"CBPI, concurrent micronucleus test",,"1500 µg/mL, 4 h, together with: rat liver S9",baseline: vehicle control,cytotoxicity,-4%
CC1(C)[C@@H](O[C@H]2O[C@H](C(=O)O)[C@@H](O)[C@H](O)[C@H]2O[C@@H]2O[C@H](C(=O)O)[C@@H](O)[C@H](O)[C@H]2O)CC[C@]2(C)[C@H]3C(=O)C=C4[C@@H]5C[C@@](C)(C(=O)O)CC[C@]5(C)CC[C@@]4(C)[C@]3(C)CC[C@@H]12,mock HEK293,,,"50 µM, 10 min",,transport rate,1.9 ± 0.4 pmol/min/mg protein
COc1cc(/C=C/C(=O)C(=Cc2ccccc2)C(=O)/C=C/c2ccc(O)c(OC)c2)ccc1O,WRL68,MTT,,"0.4 µg/mL, 48 h, 10% FBS",,viability,11.9% and 12.4%
c1ccc(CN(CCN(Cc2ccccn2)Cc2ccccn2)Cc2ccccn2)nc1,"LUHMES MT1G-HiBiT neurons, differentiated",,,concentration not given,,cytotoxicity,toxic

# Some of these lines once more:
Compound,cell line,test,system,setting,scale,endpoint,result
CCSC(SCC)=C(C#N)c1nc2ccccc2s1,FRhK-4,,,72 h,,maximum non-toxic concentration,110 µg/mL
c1ccc(CN(CCN(Cc2ccccn2)Cc2ccccn2)Cc2ccccn2)nc1,"LUHMES MT1G-HiBiT neurons, differentiated",,,concentration not given,,cytotoxicity,toxic
COc1ccc(-c2nc(NS(=O)(=O)c3ccc(C)cc3)nc(N)c2-c2nc3ccccc3s2)cc1,FRhK-4,cytotoxicity,,72 h,,maximum non-toxic concentration,90 µg/mL
CC(=O)N[C@H]1[C@H]([C@H](O)[C@H](O)CO)OC(C(=O)O)=C[C@@H]1N=C(N)N,Caco-2 monolayer,,HBSS without Ca2+,"180 min, apical to basolateral",,Papp,2.42 ± 0.161 ×10⁻⁶ cm/s
NC(=O)C1CCCN1C(=O)Cc1ccc(N(CCCO)Cc2cnc3nc(N)nc(N)c3n2)cc1 (stereo not shown),THP-1-derived macrophages,MTT,,,,CC50,> 100 µM
CCOC(=O)c1cc(C#N)c(=O)n(NS(=O)(=O)c2ccc(C)cc2)c1N,FRhK-4,,,72 h,,maximum non-toxic concentration,90 µg/mL
